# Experimental data pooled from the literature.
# Parts stem from different laboratories: compare values within a part only. Positions count from the first letter of the parent shown.

# Set 1 — method: protein-binding microarray; form: double-stranded DNA, one strand shown; medium: in vitro; concentration: 2540 nM top; setting: 60-bp whole probe; added: salmon DNA 0.4 mg/ml; reference: random background probes; direction: higher = stronger binding; all sequences stand within: GCCTAGCAC … GTCTTGATTCGCTTGACGCTGCTG
# Target: Interferon regulatory factor 3, full length, phosphomimetic (IRF3, Homo sapiens, UniProt Q14653, residues 1-427, S386D/S396D/S398D/S402D/T404D/S405D)
# Sequence of UniProt Q14653 (whole entry, unmodified, looked up): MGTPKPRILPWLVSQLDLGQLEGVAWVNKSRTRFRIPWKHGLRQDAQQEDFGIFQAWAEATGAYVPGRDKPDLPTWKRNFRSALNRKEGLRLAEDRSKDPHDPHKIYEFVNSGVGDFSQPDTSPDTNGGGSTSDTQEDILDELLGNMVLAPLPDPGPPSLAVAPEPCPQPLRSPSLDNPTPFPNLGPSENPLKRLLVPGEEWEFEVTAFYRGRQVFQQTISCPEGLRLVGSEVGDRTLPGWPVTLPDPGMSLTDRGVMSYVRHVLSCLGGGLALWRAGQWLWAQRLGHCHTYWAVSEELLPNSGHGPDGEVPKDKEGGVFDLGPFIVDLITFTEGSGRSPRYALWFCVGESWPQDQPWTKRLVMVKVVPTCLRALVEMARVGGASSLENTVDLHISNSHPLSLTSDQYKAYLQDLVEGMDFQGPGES
Strand,fitted relative affinity
GACGGTTTCGAATATCGGGACGTGCTA,4.25 z-score
TTAGGTTTCGACTTTCGGTTCGTGCTA,4.52 z-score
GACGGACTGTGGTATCGGGACGTGCTA,-0.101 z-score
TTAGGTATCCTTATGCTTTAGTGCTAG,3.7 z-score
GACGGTTTCGGACTAGGGACGTGCTAG,5.27 z-score
TCACCTTTTATATTGTAACTGTGCTAG,2.91 z-score
TTAGATTTCGGGACTGGATTCGTGCTA,1.31 z-score
GACGGTCTCCTTTTCCCGACGTGCTAG,4.82 z-score
GACGGACTGCTTACCCTGACGTGCTAG,-0.39 z-score
TCAAGAATGTCCTTTCTCACTGTGCTA,3.61 z-score
TTGGGACTGGGGTATCGGTTAGTGCTA,-0.365 z-score
TCAGGTTTCGGGACTGGGTTAGTGCTA,4.31 z-score
TCAACTTTCTCTGCTCTTACTGTGCTA,1.14 z-score
TTAGGACTGGGGACTGGCTTAGTGCTA,-1.3 z-score
GACGATTTTAGACTGGAGACGTGCTAG,0.385 z-score
TAAGGTTTCGGGACTGGGTTAGTGCTA,4 z-score

# Set 2 — method: DHFR PCA, deep sequencing; medium: yeast; added: (+)-ABA 0.0091 µM; reference: wild-type fitted maximum; direction: higher = stronger binding
# Target: ABI1, truncated, D143A, DHFR fusion (Arabidopsis thaliana)
# Setting: methotrexate growth selection, single substitutions
# Starting sequence: PYL1, truncated, DHFR fusion (Arabidopsis thaliana); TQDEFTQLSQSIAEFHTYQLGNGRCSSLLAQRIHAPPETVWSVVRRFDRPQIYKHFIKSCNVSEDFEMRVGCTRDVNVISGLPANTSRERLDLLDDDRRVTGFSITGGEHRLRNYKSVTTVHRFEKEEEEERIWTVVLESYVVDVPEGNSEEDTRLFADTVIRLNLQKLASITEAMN; partner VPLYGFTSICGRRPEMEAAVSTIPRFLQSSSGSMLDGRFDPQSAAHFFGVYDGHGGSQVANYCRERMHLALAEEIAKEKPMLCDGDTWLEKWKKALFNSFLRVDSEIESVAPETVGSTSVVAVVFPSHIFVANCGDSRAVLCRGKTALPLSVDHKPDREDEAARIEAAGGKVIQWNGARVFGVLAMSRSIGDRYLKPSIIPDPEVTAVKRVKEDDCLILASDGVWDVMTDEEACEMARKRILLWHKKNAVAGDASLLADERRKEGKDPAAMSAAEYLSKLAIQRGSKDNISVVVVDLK
Change,relative binding score [%]
D95F,-2.61
F103P,-4.4
A158S,1.12
Q7A,35.6
P50C,0.539
S104D,-4.53
V121L,0.546
L8N,2.21
H110A,39
I57E,-0.967
L112E,-2.65
T1D,22.4
N114W,-2.85

# Set 3 — target: CCNE1, cyclin fold, Cln2 fusion (human); method: yeast growth competition, sequencing; medium: yeast; setting: strong parent motif; reference: not given; direction: higher = stronger binding
# Starting sequence: PKMYT1 docking peptide (human); SFEPRNLLSLFED; partner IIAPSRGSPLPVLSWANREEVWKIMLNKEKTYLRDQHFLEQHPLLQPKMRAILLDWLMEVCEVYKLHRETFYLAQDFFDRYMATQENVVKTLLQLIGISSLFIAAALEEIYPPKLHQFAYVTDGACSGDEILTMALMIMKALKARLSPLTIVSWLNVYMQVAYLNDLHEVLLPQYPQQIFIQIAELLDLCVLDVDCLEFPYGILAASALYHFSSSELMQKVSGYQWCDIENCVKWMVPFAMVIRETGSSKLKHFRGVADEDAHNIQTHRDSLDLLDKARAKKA
Change,normalised enrichment score
SFEQRNLLSLFED [P4Q],1.28
SFGPRNLLSLFED [E3G],0.843
SFEPRNLLCLFED [S9C],1.62
SFMPRNLLSLFED [E3M],2.49
SFEPRNLLSQFED [L10Q],2.08
SFEPRNLMSLFED [L8M],2.41
SFEPRNLLSLFES [D13S],1.93
SFESRNLLSLFED [P4S],0.884
SFEPRNLLSLFEM [D13M],2.14
SFEPRALLSLFED [N6A],1.15
SFNPRNLLSLFED [E3N],1.75
SFEPANALSLFED [R5A L7A],0.16
SFEPRPLLSLFED [N6P],1.06
SFEPRNLLSLKED [F11K],0.533
SFEPRWLLSLFED [N6W],1.3

# Set 4 — method: aptamer microarray, sandwich; form: DNA with 2'F-ANA; medium: in vitro; concentration: 200 nM; added: Cy3 exosite-II aptamer, 400 nM; direction: higher = stronger binding; strand: GGTTGGTGTGGTTGG
# Target: Prothrombin, mature alpha-thrombin (F2, Homo sapiens, UniProt P00734)
# Setting: whole 15-mer aptamer, many near background
Modification,mean fluorescence intensity [a.u.]
2'F-ANA at 2 7 8 11 12 15,729
2'F-ANA at 1 6 8 9 13,127
2'F-ANA at 2 5 7 11 13 14 15,49.1
2'F-ANA at 2 3 7 8 9 10 11 12 13 14 15,238
2'F-ANA at 4 5 6 11 14 15,76.2
2'F-ANA at 1 2 5 8 10 11 15,52.4
2'F-ANA at 3 4 5 7 10,74.7
2'F-ANA at 2 3 11 12,1120
2'F-ANA at 3 4 6 7 8 10 12 14,176
2'F-ANA at 3 6 7,1070
2'F-ANA at 3 5 7 8 10,79.7
2'F-ANA at 2 3 4 7 8 9 10 11 12 14,171
2'F-ANA at 1 2 5 7 8 11 12 14 15,53.3
2'F-ANA at 9 12 14,212
2'F-ANA at 5 6 10 11 13,46.6
2'F-ANA at 1 2 3 4 6 7 10 11 12,73.3

# Set 5 — method: RNA Bind-n-Seq; form: RNA; medium: in vitro; concentration: 365 nM; reference: no-protein control; direction: higher = stronger binding
# Target: RNA binding protein fox-1 homolog 2, RRM domain, GST-SBP tag (RBFOX2, Homo sapiens, UniProt O43251-10, residues 100-194)
# Setting: natural RNA segment, single round, ends assumed
# All sequences stand within: GGGAGUUCUACAGUCCGACGAUC … UGGAAUUCUCGGGUGCCAA
# Residues (chain): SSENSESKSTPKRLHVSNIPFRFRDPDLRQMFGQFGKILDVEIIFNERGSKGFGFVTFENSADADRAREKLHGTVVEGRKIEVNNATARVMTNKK
Strand,RBNS enrichment (R)
AGAACUGACUUCUGAAACGAAGAGAAAAGCACCUAUGGAUCCCACUCCUUCCCAUCGCUUACCUGUUCCCCAGCUCCCCGUUGACCCACCCUGGUAGAUUAGCCAGCUGU,0.605
CUGUCAUUUGCCAGUUGAUGGAGCCAAGUUGACCUUUGGUUCUGGUGCUUCACCCAGUUUGGAACUUUAAUCUGUAACCCAUGGAUCCACAGAUUUUCUUGGGAGCUUGA,0.391
CCUCACACAGUAGUACUAGUUGACAGUACUAGUUGGUUGAAACUAGGGAGACAGUUACCUAGACUACCAGGUAGAAGGGACAGGGGUCAGGUCAACCUCACACUGAUAUG,0.424
GUACUAAUGCUAAUAAUUCCAUCAAAAUUUGCCUGUGGAACAUAUAUUGUCCUUAACUUUAAGAUGUCAUUUCCUGAGACAGACUGUAUGAAGCUAUUGUCAGCUUCUCU,1.83
GCACUUCUCACAAUGUAACUGCUUUAGUCAUAUUAACCUGAAGUUGCAGUUUAGACACAUGUUUUUGGGGUGUCUUUCUGGUGUCCAAACUUUUGAGGCACUUUUCAAAU,0.282
CCAUGCCCACUGCUGGUGCCAGGGUGGGUGUCCAUGUGCACCCGGCCUGGAUGCCAGCUGUGUCCUUCGGGGGCGUGCGUGUAACUGUAGUGUAGUCAGGUGCUCAAUGG,0.391
AACCAGGAGGCUUCGAAAAGCAGCGUCUCUGGCAGUCAAGAUAAAAAAGUUGAUAUUGUGUUUUGUGGGACUGUAUAUGUUGUCAUUUUUAAAGGGGGGAAAUAACAUCC,1.35
AGGAAGGGCGGGUGGUGUGGACAGUGUGUCAGGAGUGGUGUCACACGUGUCACACUGUUUGGAGGGGGAAGGGCAUUGCCAGCCACUGUCUGCCGAGUCGUCUGUGUAAA,0.775
UCUGGUGGACUAGGCAAGGUACAGUUUAUGGUUAUCCCCAUCAUCAGCUUAGGUCACUUGAACAUGUGUAAGUGGUAUAAGUAGGAGCUAAAUGCCAGGAGGAAAAAGGU,0.984
AGUAUUUUGAGUGUUUUUCAAAUGUUUGUACGUUAUCUUGCACUGCUCUAAUAAAAAUGAAAGCUCUCUGACAAGAAAUAGUUCUGGAUGGUUUGAAGAUCUGCGGGGAA,0.714
GGGACCCCUGGUUGGGGAACAGGUGAGUUCUAUUUGAGACUUCCAGCCCUAGAAAGCUGCCUCCGUCCAGAAAUGCCUCUCACACCAGGAGCUCGGCCCUCUCUUUGUAG,0.294
ACCCCGUGCCGUGUAGACACUCAUCUUCUGCAUGACAUGAUCUACCAUUCGGUGUAAACAUUUGUGUUUAUAAGAUUUACUUUGUUUUUAUUUUUCUACUUGGAACUGUA,3.47

# Some of these lines once more (set 3):
Change,normalised enrichment score
SFMPRNLLSLFED [E3M],2.49
SFEPRNLLSQFED [L10Q],2.08
SFEPRNLMSLFED [L8M],2.41
SFEPRNLLSLFES [D13S],1.93
SFESRNLLSLFED [P4S],0.884
